# Assay results from different studies.
# Every numbered part comes from another study and shows a few of its results, in no order. Positions count from the first letter of the parent shown.

# Block 1 — target: CCNA2, cyclin fold, Cln2 fusion (human); technique: yeast growth competition, sequencing; matrix: yeast; notes: strong parent motif; baseline: not given; reading: higher = stronger binding
# Parent: CDKN1B docking peptide (human); PSACRNLFGPVDH; partner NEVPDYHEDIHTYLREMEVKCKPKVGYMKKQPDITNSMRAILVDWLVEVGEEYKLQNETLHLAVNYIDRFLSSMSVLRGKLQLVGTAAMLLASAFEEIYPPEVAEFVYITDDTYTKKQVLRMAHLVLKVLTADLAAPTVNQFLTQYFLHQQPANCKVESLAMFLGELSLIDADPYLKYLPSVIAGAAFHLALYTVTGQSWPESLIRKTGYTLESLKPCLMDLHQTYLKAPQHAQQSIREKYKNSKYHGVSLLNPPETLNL
Variant,normalised enrichment score
P1N,3.97
R5A L7A,-0.354
A3T,1.6
D12C,3.78
V11P,4.12
R5H,0.143

# Block 2 — technique: DHFR PCA, deep sequencing; matrix: yeast; added: (+)-ABA 200 µM; baseline: wild-type fitted maximum; reading: higher = stronger binding
# Target: ABI1, truncated, D143A, DHFR fusion (Arabidopsis thaliana)
# Notes: methotrexate growth selection, single substitutions
# Parent: PYL1, truncated, DHFR fusion (Arabidopsis thaliana); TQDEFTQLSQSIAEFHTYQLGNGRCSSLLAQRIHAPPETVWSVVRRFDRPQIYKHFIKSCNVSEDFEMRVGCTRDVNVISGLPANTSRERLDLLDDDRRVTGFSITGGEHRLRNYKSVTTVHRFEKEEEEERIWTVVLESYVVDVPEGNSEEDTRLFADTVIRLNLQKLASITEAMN
Variant,relative binding score
F124P,75.6%
A170Y,8.85%
E38V,67.2%
V44L,95.8%

# Block 3 — technique: competition protein-binding microarray; molecule type: double-stranded DNA, one strand shown; matrix: in vitro; concentration: 2 µM; added: Cbf1 competitor, 0.05 µM; reading: higher = stronger binding; constant ends, left off below: … GTCTTGATTCGCTTGACGCTGCTG
# Target: Phosphate system positive regulatory protein PHO4, full length, GST-tagged (PHO4, Saccharomyces cerevisiae, UniProt P07270, residues 1-312)
# Notes: whole 60-bp probe, lowest competitor level
# Target sequence (chain): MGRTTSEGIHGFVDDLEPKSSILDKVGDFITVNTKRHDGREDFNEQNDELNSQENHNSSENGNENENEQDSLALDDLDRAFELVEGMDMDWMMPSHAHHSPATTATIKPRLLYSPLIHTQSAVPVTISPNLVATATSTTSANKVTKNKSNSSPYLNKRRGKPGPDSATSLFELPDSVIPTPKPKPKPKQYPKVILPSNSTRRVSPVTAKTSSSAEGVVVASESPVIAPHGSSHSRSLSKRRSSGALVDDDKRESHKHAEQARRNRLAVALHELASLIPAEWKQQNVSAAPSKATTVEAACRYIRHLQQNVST
Oligonucleotide,fluorescence intensity
AAAGCGGTAATTTGTTAAGTGGGTGCAGATATCTAT,4740 a.u.
AGCGGCCGCAGAACTCACGTGGCAGCTGAACCCTCC,13100 a.u.
CGGGGTTAAGTTTGACCCGTGGGTGGCTTGCAGCAG,8540 a.u.
GCGCTTGCATCGCTGCATGTGTTAACCGAAAAGTTT,7600 a.u.
GACATCTGGCGTAGTCACCTGTCAGAGAAATCGCGG,4160 a.u.
AAAGCGGTAATTTGTTAGGTGGGTGCAGATATCTAT,4510 a.u.

# Single results of other studies
Substance,target,test,test system,conditions,scale,quantity,result
"PhoQ, residues 284 288 289 292 302 303 SNSSNI","PhoP, residues 12 14 15 18 19 NQAHL (Escherichia coli, UniProt P23836)","Sort-seq, refers to: YFP reporter",E. coli,"PhoQ-PhoP variant library, added: 10 µM Mg2+","baseline: high Mg2+ state, higher = stronger signaling",fold induction,0.89

# A few entries again (block 1):
Variant,normalised enrichment score
R5H,0.143
A3T,1.6
